Results gathered from unrelated publications.
Method: steady-state kinetics
B1: UGT1A9 (Homo sapiens, UniProt O60656); chain GKLLVVPMDGSHWFTMRSVVEKLILRGHEVVVVMPEVSWQLGRSLNCTVKTYSTSYTLEDLDREFKAFAHAQWKAQVRSIYSLLMGSYNDIFDLFFSNCRSLFKDKKLVEYLKESSFDAVFLDPFDNCGLIVAKYFSLPSVVFARGILCHYLEEGAQCPAPLSYVPRILLGFSDAMTFKERVRNHIMHLEEHLLCHRFFKNALEIASEILQTPVTEYDLYSHTSIWLLRTDFVLDYPKPVMPNMIFIGGINCHQGKPLPMEFEAYINASGEHGIVVFSLGSMVSEIPEKKAMAIADALGKIPQTVLWRYTGTRPSNLANNTILVKWLPQNDLLGHPMTRAFITHAGSHGVYESICNGVPMVMMPLFGDQMDNAKRMETKGAGVTLNVLEMTSEDLENALKAVINDKSYKENIMRLSSLHKDRPVEPLDLAVFWVEFVMRHKGAPHLRPAAHDLTWYQYHSLDVIGFLLAVVLTVAFITFKCCAYGYRKCLGKKGRVKKAHKSKTH
B2: enzyme (Candida albicans, UniProt A0A1D8PHX1); chain MISIIQNGISQLSSVSGLDEANLKILICTLLSFPFGIIFKRLPDHDYTLKNIYNVAVSCFYVFGICDLRFGISTLLISATGSYFITRYVRTKSMPWINFLFLMIHMAYSHFHLQFFKEYDPKSIDITGAQMILVMKLSAFGWNIHDGKQPRSTLNDFNKARAITKHPNVLPYIGYVFFYASLLTGPAFDYADYDKFIHGTLFDDVPQDKRPGKNKRRIPRSGVQAFKKFSLGFFWAFLLLQSDKFVTMEYMFSPEFVQYHGLFYRIIYMWILGFTFRLKYYTIWTIAEGACILCGIGYNGVDPETGEFKWNRVQNIDPWSFETGQNVHACLEAWNQNTNIWLKNYVYLRVAKPGKKPGFKSTIFTFTTSAFWHGTRPGYYLTFVVGALMQTVGKYYRRNFRPIFLEADGKTPKPTKIVYDFVCWVNTQLAFGFFVQPFVILGFTKSLECWATVYYWLLWVIAISFFAFSGPFAKSVSKFFKSLQPSYREQQRKSREDKYKLNNEEASIVEQAVGAKLGQDYDIPALGLPPFDVFTDFDQTEVDHDIQHLRKAWTSFRGRRGSITENDFDGLKDAYNNFTNEINDIFNTKKEEFKKEKLNKQN
B3: protein (Danio rerio, UniProt A0A8M1P203); chain MAQEECKMISDKLLKYKETVLTLEPSYDITPEYIDSIQDFETRDDDVFVVTFPKSGTVWTQRIITLIYEEDFPEKAKQITFEQMPWIEYRKKGKDYSTRPSPRLFCSHLLEPLMPKTLKRKGKVIYVMRNPKDVMVSYFHFSKKMKNLDSAKSYDEVLENFLTGCMVGGSWFDHVKGWVTSKDKYNILILTYEEMIKDLRSVIVKICEFVGKNLSDAAIDKVVERATFKQMKVDPVANYESLPVDITDQPKGAFMRKGTVGDWRNSLTMAQSECVDGALEERMKDVPLNLVWDITELRG
B4: FPPS (Aedes aegypti, UniProt Q17F78); chain MLSTLIRAGSLQTMGRQFARSVETPVQMQHARFISKSSEVNSDYMTMRENQTQKVSRDYNSKLQVRLKKVSRTLSTLNNSIPEAASQTIVTKSDAREFMAVFPDLVRDLTEYCKKYDNTLAPKWFVKALQYNVPQGKKNRGLAAVLAYRMLSKSEDLTPENIRRAHYLGWVIEMFQAVFLICDDAMDGSQTRRGQPCWYKLEDVKLSGINDALMIDAAIFYVLKKQFGDEPYYSKLVETFNEIKFITTIGQSLDLRSARMDVTKYTMDLYKSIVCHKTAYYTFYLPVALAMHMTGFTDPEVFRQTKTILLEIGLFYQTQDDFLDCFGDPAVTGKIGTDIEEGKCTWLSVVAMQRASDEQKELMKQCYGSSDPEKVARVKKLYEELGLPTTYAIYEEESYNMIKTHIQQISRGLPHELFFKIMEKIYRRDC
B5: enzyme (Tanacetum cinerariifolium, UniProt H6U1I8); chain SQQAAALFIFGDSVFDPGNNNHINTHVNFKANFWPYGQSYFSSPTGRFSDGRIIPDFIAEYASLPIIPAYLEPNNDFTHGANFASAGAGALIASHAGLAVGLQTQLRYFGDLVDHYRQNLGDIKSRQLLSDAVYLFSCGGNDYQSPYYPYTQEQYVDIVIGNMTNVIKGIYEKGGRKFGVVNVPLIGCWPGMRAKQPGNTCNTEVDELTRLHNQAFAKRLEQLEKQLEGFVYAKFDLSTAILNRMKNPSKYGFKEGESACCGSGPFGGNYDCGRIKEFGLCDNATEYFFFDPFHPNELASRQFAEMFWDGDSMVTQPYNLKALFEGKPSTKYLPNDEL
B6: protein (Rheum palmatum, UniProt A0A7L9A2S6); chain MKKTELVFLPAPAPGHLVSTVEFSKRLIARDARLTVTILVISSPFSRGAQTNPSPGIRYVTLPQVDVPQHLMKDSIEHTISVYIASHAPHVRDAVAALQTESTVHVAGLFLDMFCTPMIDVANELGLPSYVFFCSSAGFLGLLLHLPVHSQPRFDETGLDVLIPSFQNPVPTRVLPRFGFNELGYKSFMDHAKRFGETKGIIINTYAELEPYALKSLLDAYDTAPVYAVGPVLDLRSQVHMPCDAAERARIMGWLDKQPDSSVVFLCFGSGGSFSEHQIREISKGLSQSGQRFLWSVRKPPTGGLVKPTEYTETELRSVLGDEFWSLLDEGERGVVCGWAPQVEVLGHKSVGAFVSHCGWNSTLESLWFGKPMVTWPLYAEQQMNAFELVKELGIAVELTLDYRLHSSEVVEAREVERAVRRVMDENNPVRYKVKEMAEVCRATLVEGGSSFVCVDRLISGFLGEIN
B7: UGT3A2 Y474C (Homo sapiens, UniProt Q3SY77); chain AKILTISTVGGSHYLLMDRVSQILQDHGHNVTMLNHKRGPFMPDFKKEEKSYQVISWLAPEDHQREFKKSFDFFLEETLGGRGKFENLLNVLEYLALQCSHFLNRKDIMDSLKNENFDMVIVETFDYCPFLIAEKLGKPFVAILSTSFGSLEFGLPIPLSYVPVFRSLLTDHMDFWGRVKNFLMFFSFCRRQQHMQSTFDNTIKEHFTEGSRPVLSHLLLKAELWFINSDFAFDFARPLLPNTVYVGGLMEKPIKPVPQDLENFIAKFGDSGFVLVTLGSMVNTCQNPEIFKEMNNAFAHLPQGVIWKCQCSHWPKDVHLAANVKIVDWLPQSDLLAHPSIRLFVTHGGQNSIMEAIQHGVPMVGIPLFGDQPENMVRVEAKKFGVSIQLKKLKAETLALKMKQIMEDKRYKSAAVAASVILRSHPLSPTQRLVGWIDHVLQTGGATHLKPCVFQQPWHEQYLLDVFVFLLGLTLGTLWLCGKLLGMAVWWLRGARKVKET
B8: Comt (Mus musculus, UniProt O88587); chain MLLAAVSLGLLLLAFLLLLRHLGWGLVAIGWFEFVQQPVHNLLMGGTKEQRILRHVQQHAKPGDPQSVLEAIDTYCSEKEWAMNVGDAKGQIMDAVIREYRPSLVLELGAYCGYSAVRMARLLPPGARLLTMEINPDYAAITQQMLDFAGLQDKVSILIGASQDLIPQLKKKYDVDTLDMVFLDHWKDRYLPDTLLLEECGLLRKGTVLLADNVIVPGTPDFLAYVRGSSSFECTHYSSYLEYMKVVDGLEKAVYQGPGSSPVKS
B9: ADA (Homo sapiens, UniProt P00813); chain MAQTPAFDKPKVELHVHLDGSIKPETILYYGRRRGIALPANTAEGLLNVIGMDKPLTLPDFLAKFDYYMPAIAGCREAIKRIAYEFVEMKAKEGVVYVEVRYSPHLLANSKVEPIPWNQAEGDLTPDEVVALVGQGLQEGERDFGVKARSILCCMRHQPNWSPKVVELCKKYQQQTVVAIDLAGDETIPGSSLLPGHVQAYQEAVKSGIHRTVHAGEVGSAEVVKEAVDILKTERLGHGYHTLEDQALYNRLRQENMHFEICPWSSYLTGAWKPDTEHAVIRLKNDQANYSLNTDDPLIFKSTLDTDYQMTKRDMGFTEEEFKRLNINAAKSSFLPEDEKRELLDLLYKAYGMPPSASAGQNL
B10: enzyme R228K (Arabidopsis thaliana, UniProt O82390); chain MNARALLCSSNIHSLYTSNRPPEKTSSSRSLRNLKPSPKSLRVWIYPRNRSSVFRVLVRSSDKSESSNSYYVEGDKVSGNNDVVSDSPSSIVLPWWEEFPKRWVIVLLCFSAFLLCNMDRVNMSIAILPMSAEYGWNPATVGLIQSSFFWGYLLTQIAGGIWADTVGGKRVLGFGVIWWSIATILTPVAAKLGLPYLLVVRAFMGVGEGVAMPAMNNILSKWVPVQEKSRSLALVYSGMYLGSVTGLAFSPFLIHQFGWPSVFYSFGSLGTVWLTLWLTKAESSPLEDPTLLPEERKLIADNCASKEPVKSIPWRLILSKPPVWALISCHFCHNWGTFILLTWMPTYYHQVLKFNLMESGLLSVFPWMTMAISANAGGWIADTLVSRGFSVTNVRKIMQTIGFLGPAFFLTQLKHIDSPTMAVLCMACSQGTDAFSQSGLYSNHQDIAPRYSGVLLGLSNTAGVLAGVLGTAATGHILQHGSWDDVFTISVGLYLVGTVIWNLFSTGEKIID
B11: FMO3 D132H (Homo sapiens, UniProt P31513); chain GKKVAIIGAGVSGLASIRSCLEEGLEPTCFEKSNDIGGLWKFSDHAEEGRASIYKSVFSNSSKEMMCFPDFPFPDDFPNFMHNSKIQEYIIAFAKEKNLLKYIQFKTFVSSVNKHPDFATTGQWDVTTERHGKKESAVFDAVMVCSGHHVYPNLPKESFPGLNHFKGKCFHSRDYKEPGVFNGKRVLVVGLGNSGCDIATELSRTAEQVMISSRSGSWVMSRVWDNGYPWDMLLVTRFGTFLKNNLPTAISDWLYVKQMNARFKHENYGLMPLNGVLRKEPVFNDELPASILCGIVSVKPNVKEFTETSAIFEDGTIFEGIDCVIFATGYSFAYPFLDESIIKSRNNEIILFKGVFPPLLEKSTIAVIGFVQSLGAAIPTVDLQSRWAAQVIKGTCTLPSMEDMMNDINEKMEKKRKWFGKSETIQTDYIVYMDELSSFIGAKPNIPWLFLTDPKLAMEVYFGPCSPYQFRLVGPGQWPGARNAILTQWDRSLKPMQTRVVGRLQKPCFFFHWLKLFAIPILLIAVFLVLT
B12: protein (Adiantum capillus-veneris, UniProt A0A4Y6I289); chain MTDAVENKQVEFGALEVEGIKFAPSVAALGSTKQLVLGGAGFRGLEISGNLVKFTAIGIYVDEAIIPHLSPKLHGKSIEELCNNELLFEEVLAAPFEKLVRVVFLLPLTGPQYSEKVVERMGLLPNPGIKEESTKQFLEIFKPENFPPRTSLICSFTEEALKVAFMKTDDFPEDADAVIEDKWLARAFLASIIGKDGVSPLAKLSFAERMSRCL
UniProt P11509, sequence (whole entry, looked up): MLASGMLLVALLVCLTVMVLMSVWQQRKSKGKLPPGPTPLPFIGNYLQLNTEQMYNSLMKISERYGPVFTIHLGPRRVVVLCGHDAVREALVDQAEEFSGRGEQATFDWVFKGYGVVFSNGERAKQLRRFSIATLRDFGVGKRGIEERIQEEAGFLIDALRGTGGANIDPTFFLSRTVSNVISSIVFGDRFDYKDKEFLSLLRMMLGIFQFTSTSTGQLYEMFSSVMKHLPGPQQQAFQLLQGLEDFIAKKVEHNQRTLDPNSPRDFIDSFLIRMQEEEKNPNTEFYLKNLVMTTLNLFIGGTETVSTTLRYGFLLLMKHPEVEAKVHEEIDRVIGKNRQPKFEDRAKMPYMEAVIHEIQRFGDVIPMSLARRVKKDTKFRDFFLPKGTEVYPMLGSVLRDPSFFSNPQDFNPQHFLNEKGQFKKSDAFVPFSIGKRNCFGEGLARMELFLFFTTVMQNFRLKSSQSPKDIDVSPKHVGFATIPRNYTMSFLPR

Molecule	substrate	matrix	pH	temperature	setting	added	Vmax
B1 (UGT1A9)	COc1ccc(-c2oc3cc(O)cc(O)c3c(=O)c2OC)cc1OCc1ccccc1	–	pH 7.4	37 °C	–	–	0.00208 µmol/min/mg
B2 (enzyme)	CCCCC/C=C\C/C=C\CCCCCCCC(=O)SCCNC(=O)CCNC(=O)[C@H](O)C(C)(C)COP(=O)(O)OP(=O)(O)OC[C@H]1O[C@@H](n2cnc3c(N)ncnc32)[C@H](O)[C@@H]1OP(=O)(O)O	–	pH 7.4	37 °C	apparent, not purified	–	0.0074 µmol/min/mg
B3 (protein)	C[C@H](CCCC(CO)CO)[C@H]1CC[C@H]2[C@@H]3[C@H](O)C[C@H]4C[C@H](O)CC[C@]4(C)[C@H]3C[C@H](O)[C@]12C	–	pH 7	28 °C	substrate inhibition	PAPS 14 µM	0.00959 µmol/min/mg
B4 (FPPS)	CC(C)=CCOP(=O)(O)OP(=O)(O)O	–	pH 7.5	37 °C	–	IPP 100 µM, Mg2+ 5 mM	666 µmol/min/mg
B5 (enzyme)	C=CCC1=C(C)[C@@H](O)CC1=O	–	pH 7.5	25 °C	–	–	0.112 µmol/min/mg
B6 (protein)	COc1cc(-c2oc3cc(O)cc(O)c3c(=O)c2O)ccc1O	–	pH 7.5	35 °C	apparent	UDP-glucose	6.85e+07 µM/min/mg
CYP2A6 (Homo sapiens, UniProt P11509)	CN1C(=O)CC[C@H]1c1cccnc1	microsomes	pH 6.7	–	cotinine to COX, not purified	–	1.7e-05 µmol/min/mg
enzyme (Brachypodium distachyon, UniProt I1HY48)	NC(=O)C1=CN([C@@H]2O[C@H](COP(=O)(O)OP(=O)(O)OC[C@H]3O[C@@H](n4cnc5c(N)ncnc54)[C@H](OP(=O)(O)O)[C@@H]3O)[C@@H](O)[C@H]2O)C=CC1	–	pH 6.25	23 °C	cofactor varied	–	29.2 µmol/min/mg
B7 (UGT3A2 Y474C)	O=c1ccn([C@@H]2O[C@H](CO[P@@](=O)(O)O[P@@](=O)(O)O[C@H]3O[C@H](CO)[C@@H](O)[C@H](O)[C@H]3O)[C@@H](O)[C@H]2O)c(=O)[nH]1	–	pH 7.4	37 °C	not purified	1-OH-pyrene 16 µM, MgCl2 10 mM, alamethicin	9.5e-05 µmol/min/mg
B8 (Comt)	O=c1oc2c(O)c(O)ccc2cc1-c1nc2ccccc2s1	MLS9	pH 7.4	37 °C	–	–	0.00033 µmol/min/mg
B9 (ADA)	Nc1ncnc2c1ncn2[C@@H]1O[C@H](CO)C[C@H]1O	human erythrocytes	pH 5.8	37 °C	–	–	0.0001 µmol/min/mg
B10 (enzyme R228K)	O=P(O)(O)O	–	pH 6.5	25 °C	apparent, not purified	–	0.00457 µmol/min/mg
B11 (FMO3 D132H)	CN1CCC[C@H]1c1cccnc1	HEK293 microsomes	–	37 °C	not purified	NADPH regenerating system	7.9e-06 µmol/min/mg
B12 (protein)	O=C(/C=C/c1ccc(O)cc1)c1c(O)cc(O)cc1O	–	–	–	–	–	214 µmol/min/mg
